Assay results pooled from the literature.
“And” joins repeats or separate records; there may be more than shown. pEC50: −log10 of the molar value.

SMILES	cell line	assay	conditions	scale	measurement	result
CCN(c1nc(N)c(C(=O)NC(=N)N)nc1Cl)C(C)C	del45 myoblasts	fluorescence, item: fluorescent dextran	2 h	–	dextran uptake	81.7% and 52.7% and 79.5%
CCCCCc1cc(O)c2c(c1)OC(C)(C)[C@@H]1CCC(C)=C[C@@H]21	human sperm	BCECF	10 µM	–	intracellular pH	no effect
COc1ccc(-n2nc(C(C)=O)s/c2=N\N=C(/C)c2ccc(NC(C)=O)cc2)cc1	HepG2	–	0.625 µM	–	viability	5.18%
CCOC(=O)C1(c2ccccc2)CCN(CCC(C#N)(c2ccccc2)c2ccccc2)CC1	primary rat hippocampal/cortical neuron-glia cultures	–	1 µM, with: 1 µM α-synuclein oligomers	–	reversal of trafficking deficit	21.1%
CN1CC[C@]23c4c5ccc(O)c4O[C@H]2[C@@H](O)C=C[C@H]3[C@H]1C5	CHO cells expressing human MOR, membranes	G-protein activation, agonist	–	–	pEC50	7.02 and 7.03
C=C(C)CN1CC[C@]23c4c5ccc(O)c4O[C@H]2c2[nH]c4ccccc4c2C[C@@]3(O)C1C5	primary rat hippocampal/cortical neuron-glia cultures	–	1 µM, with: 1 µM α-synuclein oligomers	–	reversal of trafficking deficit	78.6%
CN1C(=O)C(C2C3=C(CC(C)(C)CC3=O)Oc3c(O)cccc32)C(=O)N(C)C1=O (stereo not drawn)	3T3-L1 adipocytes	qPCR, item: adiponectin	IC20, 14 days	reference: untreated mature adipocytes	mRNA level	increased
C=C1C[C@@H]2[C@H](CC[C@]3(C)C(=O)CC[C@@H]23)[C@@]2(C)C=CC(=O)C=C12	primary rat hippocampal/cortical neuron-glia cultures	–	1 µM, with: 1 µM α-synuclein oligomers	–	reversal of trafficking deficit	15%
O=C1NC(=O)C(C2C3=C(CCCC3=O)Oc3ccc([N+](=O)[O-])cc32)C(=O)N1 (stereo not drawn)	3T3-L1 adipocytes	qPCR, item: GLUT4	IC20, 14 days	reference: untreated mature adipocytes	mRNA level	decreased

Excerpt of the above:
SMILES	cell line	assay	conditions	scale	measurement	result
CN1C(=O)C(C2C3=C(CC(C)(C)CC3=O)Oc3c(O)cccc32)C(=O)N(C)C1=O (stereo not drawn)	3T3-L1 adipocytes	qPCR, item: adiponectin	IC20, 14 days	reference: untreated mature adipocytes	mRNA level	increased
